Results pooled from the literature.
Each numbered part is a random draw from the data of one study; scales do not carry over between parts. Values joined by “and” are separate records of one study, mostly repeats; a detail may differ.
Sequence of UniProt P47898 (whole entry, looked up): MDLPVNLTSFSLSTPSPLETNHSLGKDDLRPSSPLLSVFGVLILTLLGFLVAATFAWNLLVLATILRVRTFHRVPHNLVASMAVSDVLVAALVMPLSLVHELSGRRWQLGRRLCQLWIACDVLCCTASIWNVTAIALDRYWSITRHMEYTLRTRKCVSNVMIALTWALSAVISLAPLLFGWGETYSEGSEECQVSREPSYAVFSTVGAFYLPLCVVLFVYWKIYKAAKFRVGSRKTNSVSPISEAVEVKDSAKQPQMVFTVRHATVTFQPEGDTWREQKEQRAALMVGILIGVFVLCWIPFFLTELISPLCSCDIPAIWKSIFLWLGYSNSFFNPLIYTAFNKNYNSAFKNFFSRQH

Block 1 — species: human; matrix: microsomes or S9; concentration: 2 µM; time: 0.5 h
Compound | remaining compound [%]
N#Cc1nccnc1OC1CCN(C(=O)C2CC(=O)N(C3CCOCC3)C2)C1 (stereo not drawn) | 87.8
Cc1ccc(S(=O)(=O)N2OC(c3ccc(Cl)cc3)(c3ccc(Cl)cc3)C=C2c2ccccc2)cc1 | 69.9
COCCn1c(C(=O)OC)cc2c(=O)n(C)c(=O)n(C)c21 | 0
CON(C)C(=O)[C@H]1CCCN1C(=O)OC(C)(C)C | > 99

Block 2
SMILES: c1ccc(Oc2ccc(Nc3c4c(nc5ccccc35)CCC4)cc2)cc1
cell line | test | setting | cytotoxicity
PMA-differentiated THP-1 macrophages |  | 8 µM, 64 h | 27% and 21%
HepG2 | resazurin | 16.66 µM, 48 h | 27% and 18%
HEK293 | resazurin | 3.32 µM, 10% serum | 22% and 13%

Mixed results
SMILES | target or system | test | system | setting | endpoint | value
CNC(=N)NCCC[C@H](NC(=O)[C@H](CC(C)C)NC(=O)NNC(=O)[C@H](Cc1ccccc1)NC(=O)[C@H](CO)NC(=O)[C@H](CC(N)=O)NC(=O)[C@@H](Cc1ccncc1)NC(=O)[C@H](N)Cc1ccc(O)cc1)C(=O)N[C@@H](Cc1ccccc1)C(N)=O | 5-hydroxytryptamine receptor 5A (HTR5A, Homo sapiens, UniProt P47898) | ligand displacement |  | 10 µM | inhibition | 20.1%
CC(C)n1cnc(-c2ccc(F)cc2)c1-c1ncc(C(=O)Nc2ccc(N3CCN(C)CC3)cc2)[nH]1 |  | phase 2a trial | idiopathic pulmonary fibrosis patients | 30 mg once daily, adverse event grade 4 | patients with abdominal distension | 0%

Repeated from above (block 1):
Compound | remaining compound [%]
N#Cc1nccnc1OC1CCN(C(=O)C2CC(=O)N(C3CCOCC3)C2)C1 (stereo not drawn) | 87.8
